Experimental data pooled from the literature.
Numbered parts are unrelated; each lists some results of a single study. Changes are numbered by the printed parent chain.

Block 1 — method: universal PBM; molecule type: double-stranded DNA, one strand shown; matrix: in vitro; concentration: 600 nM; reading: higher = stronger binding
Target: Sal-like protein 4, full length isoform A (SALL4, Homo sapiens, UniProt Q9UJQ4, residues 1-1053)
Sequence of UniProt Q9UJQ4 (whole entry, looked up): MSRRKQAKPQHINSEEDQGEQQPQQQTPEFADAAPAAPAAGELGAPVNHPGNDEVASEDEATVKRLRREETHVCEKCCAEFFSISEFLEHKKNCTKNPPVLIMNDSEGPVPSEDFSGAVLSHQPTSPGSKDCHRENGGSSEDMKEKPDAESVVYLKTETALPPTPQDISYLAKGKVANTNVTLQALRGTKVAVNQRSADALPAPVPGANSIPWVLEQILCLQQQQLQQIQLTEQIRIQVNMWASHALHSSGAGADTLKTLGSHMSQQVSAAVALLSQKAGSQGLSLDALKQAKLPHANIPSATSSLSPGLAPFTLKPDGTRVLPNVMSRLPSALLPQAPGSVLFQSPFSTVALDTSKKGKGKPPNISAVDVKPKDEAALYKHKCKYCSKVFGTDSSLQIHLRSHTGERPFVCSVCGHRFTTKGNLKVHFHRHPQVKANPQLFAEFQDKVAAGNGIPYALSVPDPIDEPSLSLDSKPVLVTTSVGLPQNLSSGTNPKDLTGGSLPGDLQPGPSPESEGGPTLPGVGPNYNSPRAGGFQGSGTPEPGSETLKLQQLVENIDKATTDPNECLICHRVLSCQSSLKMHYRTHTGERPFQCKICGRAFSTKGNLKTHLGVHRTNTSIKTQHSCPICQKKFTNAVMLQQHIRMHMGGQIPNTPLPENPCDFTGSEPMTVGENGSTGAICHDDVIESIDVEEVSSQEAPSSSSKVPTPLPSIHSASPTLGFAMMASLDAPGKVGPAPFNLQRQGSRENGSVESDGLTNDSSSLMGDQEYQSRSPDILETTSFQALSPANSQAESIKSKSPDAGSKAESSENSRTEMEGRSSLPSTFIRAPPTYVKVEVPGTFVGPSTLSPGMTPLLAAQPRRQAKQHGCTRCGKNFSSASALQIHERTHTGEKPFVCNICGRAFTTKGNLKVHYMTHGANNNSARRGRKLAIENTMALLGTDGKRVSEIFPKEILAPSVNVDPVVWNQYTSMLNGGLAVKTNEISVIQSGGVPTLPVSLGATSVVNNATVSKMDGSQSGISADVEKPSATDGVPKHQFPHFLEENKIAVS
Setting: 8-mer, flanks averaged, mean of replicates
`AGCCCACG` gave an E-score of -0.309.
The E-score of `GAGTCCAA` is reported as -0.149.
`AACCTCAC` gave an E-score of -0.0214.
With `GTAGTCAC` the E-score was -0.158.
`GCTGGAGA` gave an E-score of -0.232.
With `AGCTTGCC` the E-score was -0.213.
`AGTGACTC` gave an E-score of -0.0768.
`CTGCCTCC` gave an E-score of -0.239.
`ACAGTAGA` has an E-score of 0.266.
`ATGTGGCC` has an E-score of -0.0942.
The E-score of `GACTTTCC` is reported as -0.081.
With `AGGACATG` the E-score was -0.0306.
With `GACTAATA` the E-score was 0.311.
For `ATATTCAG`, the E-score was 0.257.
For `CACCATGG`, the E-score was -0.217.
`GAGGCCGA` gave an E-score of -0.318.
`CCAGATCA` has an E-score of 0.116.
The E-score of `GCCCGCTA` is reported as -0.245.
`ATCATAGA` has an E-score of 0.292.
`CTATCGCC` has an E-score of -0.135.
`ATCTGATG` has an E-score of 0.079.
With `AATACCCT` the E-score was -0.0903.
For `CAGAGGAA`, the E-score was -0.104.
The E-score of `ACGGCTTA` is reported as -0.0413.
For `GTACGTTA`, the E-score was 0.213.

Block 2 — method: RNA Bind-n-Seq; molecule type: RNA; matrix: in vitro; concentration: 365 nM; relative to: no-protein control; reading: higher = stronger binding
Target: RNA binding protein fox-1 homolog 2, RRM domain, GST-SBP tag (RBFOX2, Homo sapiens, UniProt O43251-10, residues 100-194)
Setting: natural RNA segment, single round, ends assumed
Residues (chain): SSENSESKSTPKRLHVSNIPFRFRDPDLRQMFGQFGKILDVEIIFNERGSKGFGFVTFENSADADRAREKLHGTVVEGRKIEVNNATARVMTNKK
`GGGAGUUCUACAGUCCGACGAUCAUGGGCAUACAAGGUGAGUUGUACGUAGAACUAAAUCCUUGAGUGUUUCCCACCUGACUCUACUAUACUCUUCCUGAUCACCAUGUGGCCUAAGAAUAUAUACUAUGGAGUGGAAUUCUCGGGUGCCAA` — result for “RBNS enrichment (R)”: 0.378.
For `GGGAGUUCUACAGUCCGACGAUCUCUGCCCACCCCCCACCCUGUCCCUCCGGGGGUGAACCAGCCAGGCUGCACUACAAUGUCCACAGGCAAGAGGCCCCCAGGCCACCAGCAAAUGUCCCGCCCCUGGGGACUGGAAUUCUCGGGUGCCAA`, “RBNS enrichment (R)” read 1.08.
`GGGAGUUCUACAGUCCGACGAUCCUCCAUGGUGUCUGCAUAGAGCCACGACAGAGGCAUUCCUCAGCUGUACCUCUGACUUUCUUGGCUCAGGUUCAGUCAGUUGCUCUUCCUCCUUGGCAAAGCCAUCUAGGUGGAAUUCUCGGGUGCCAA`: “RBNS enrichment (R)” 0.344.
`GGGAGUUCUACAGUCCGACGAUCAUGUGUUAAAAGGACUGCUUUUCCCCACUGUGUCCCUGUCAAAAAUCAACUGAACAUAUAUGUAAGAGUUAUUUAAAUUUUGAAAUUGGGACGUAUACAUUCUCCAUUCUUGGAAUUCUCGGGUGCCAA`: “RBNS enrichment (R)” 0.331.
Under “RBNS enrichment (R)”, `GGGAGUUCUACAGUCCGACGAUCAGCCUGGUCUCUGAGGUGCUUUCUAACAGCUGGAGGCACUUGUUCUGGGCUUUCCUUUGCCCUCAGUUUUUCACAGGUAGGUAGUAGCCAUGGAGGGCUGAAGCCCAGGCUGGAAUUCUCGGGUGCCAA` is recorded as 0.778.
`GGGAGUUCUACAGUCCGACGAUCUGACUGGCAGCUUCUCCUCCAGACUCCUAGCCCCGAGGUGCUGAUGGAGAUGCUCAAGGCCAGCAAGCCCCUCAGGCCAGCACUUCGCUUGCAGAAGCCAUCCAUUCACUUGGAAUUCUCGGGUGCCAA`: “RBNS enrichment (R)” 0.755.
`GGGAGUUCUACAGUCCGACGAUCAUGGGCUGCCCAGGGCUGGAGGGGACGCUGUUCCUCCCGCCGCCACUGCCCAACCUUUCCUGAUAAUCGUGGCAUGCGCCCUUUCCUCUUCCCUGCCCCACCCCCUGGCCUGGAAUUCUCGGGUGCCAA`: “RBNS enrichment (R)” 0.864.
Under “RBNS enrichment (R)”, `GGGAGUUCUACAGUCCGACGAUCCUGUACCACUCCCAGAGGUCUGAGCAGGCCACAGAUAGCCCCCACCUUGCAGAGCAGGAAGUUUAGCCAGGCUCGAGUGUAUCCCCUCCAGCCCUGGCAAAGGGCUUCUGUGGAAUUCUCGGGUGCCAA` is recorded as 0.252.
For `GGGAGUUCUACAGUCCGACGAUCCUCCUUCCCAUGUCCCUUUCACACCAAGGCGACUCAGACCUCUCAGAGACCCACUUUAUUCAGUUCUGUACAUAUGGGGACAUCGGCCCAAGCCCAGCCCACCUUAGCAUUGGAAUUCUCGGGUGCCAA`, “RBNS enrichment (R)” read 0.492.
For `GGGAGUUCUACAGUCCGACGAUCCUGCCAUGGGGCUGCUUCCCUGUCCCUUCCCUCCCCUUUGCUGGCCUACUCUGGCAUAAUUCAAGUGUCUUCUUGCCUUGGGGAUCCUUAGUGGCAUCAAAUGGCAACAUUGGAAUUCUCGGGUGCCAA`, “RBNS enrichment (R)” read 0.652.
`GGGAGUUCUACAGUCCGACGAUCGGGAUGCCACGGUCGCCUCUGAGAAGGAAUCAGUCAUGUAAACCCCGGGAGGGACCUUCCCUGCCCUGCUGGGGGUGCUCUUUGGACACUGGAUUAUGAGGAAUGGAUAAUGGAAUUCUCGGGUGCCAA`: “RBNS enrichment (R)” 1.28.
Under “RBNS enrichment (R)”, `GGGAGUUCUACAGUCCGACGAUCUGGAAACAGACUUCUGCCUACAUCGAGUCCUACGAAUUGGGGUUGUAUUGAUGUCACUCUGGUGCCUUAGAAGUCAGUCGUCCUUGGGAAGGUGUCUGCGAGACUGGGCCUGGAAUUCUCGGGUGCCAA` is recorded as 0.809.

Block 3 — target: CCNE1, cyclin fold, Cln2 fusion (human); method: yeast growth competition, sequencing; matrix: yeast; setting: weak parent motif; relative to: not given; reading: higher = stronger binding
Starting sequence: MASTL docking peptide (human); PMIAKNLMCELDE
For `L11W`, “normalised enrichment score” read 0.133.
For `M2H`, “normalised enrichment score” read -0.0218.
`N6W`: “normalised enrichment score” 0.191.
Under “normalised enrichment score”, `L11N` is recorded as -0.177.
`I3K` — result for “normalised enrichment score”: 0.0593.
Under “normalised enrichment score”, `I3M` is recorded as 0.0101.
For `A4W`, “normalised enrichment score” read 0.576.
`M8K` — result for “normalised enrichment score”: -0.0453.
`D12Q`: “normalised enrichment score” 0.0263.
For `C9D`, “normalised enrichment score” read 0.0723.
For `D12H`, “normalised enrichment score” read 0.215.
For `K5H`, “normalised enrichment score” read -0.438.
`M8P`: “normalised enrichment score” -0.137.
Under “normalised enrichment score”, `M8D` is recorded as -0.00418.
`N6K`: “normalised enrichment score” 0.104.
For `E10R`, “normalised enrichment score” read -2.93e-05.
Under “normalised enrichment score”, `A4E` is recorded as -0.0637.
`M8V`: “normalised enrichment score” 0.235.
For `M2E`, “normalised enrichment score” read -0.0373.
Under “normalised enrichment score”, `M2T` is recorded as 0.00443.
`A4Y`: “normalised enrichment score” 0.0473.
For `E10Y`, “normalised enrichment score” read 0.273.
`D12S`: “normalised enrichment score” -0.0127.
Under “normalised enrichment score”, `E10I` is recorded as 0.567.
Under “normalised enrichment score”, `D12F` is recorded as 0.396.

Block 4 — method: aptamer microarray, sandwich; molecule type: DNA with 2'F-ANA; matrix: in vitro; concentration: 200 nM; added: Cy3 exosite-II aptamer, 400 nM; reading: higher = stronger binding; oligonucleotide: GGTTGGTGTGGTTGG
Target: Prothrombin, mature alpha-thrombin (F2, Homo sapiens, UniProt P00734)
Setting: whole 15-mer aptamer, many near background
Under “mean fluorescence intensity”, `2'F-ANA at 2 3 6 7 10 15` is recorded as 356 a.u.
`2'F-ANA at 1 3 4 5 7 9 13 15`: “mean fluorescence intensity” 48.9 a.u.
Under “mean fluorescence intensity”, `2'F-ANA at 3 4 5 8 9 12` is recorded as 234 a.u.
`2'F-ANA at 1 3 6 7 8 10 11 13 14`: “mean fluorescence intensity” 65 a.u.
`2'F-ANA at 2 12 13 14 15`: “mean fluorescence intensity” 185 a.u.
Under “mean fluorescence intensity”, `2'F-ANA at 1 4 5 6 7 9 10 11 12 13 14 15` is recorded as 59.9 a.u.
`2'F-ANA at 2 3 5 6 8 11 14 15`: “mean fluorescence intensity” 51.1 a.u.
Under “mean fluorescence intensity”, `2'F-ANA at 2 4 5 8 10 11 15` is recorded as 44.3 a.u.
`2'F-ANA at 1 2 3 4 5 6 8 10 11 12 13 14 15` — result for “mean fluorescence intensity”: 48.6 a.u.
Under “mean fluorescence intensity”, `2'F-ANA at 2 3 4 6 8 12 15` is recorded as 866 a.u.
Under “mean fluorescence intensity”, `2'F-ANA at 1 2 3 5 6 13 14` is recorded as 47.3 a.u.
`2'F-ANA at 1 2 5 14 15`: “mean fluorescence intensity” 43.7 a.u.
Under “mean fluorescence intensity”, `2'F-ANA at 1 2 3 4 6 10 11 13 15` is recorded as 54.8 a.u.
Under “mean fluorescence intensity”, `2'F-ANA at 1 2 9 13 14` is recorded as 81.6 a.u.
`2'F-ANA at 2 4 5 7 9 10 11`: “mean fluorescence intensity” 48.9 a.u.
Under “mean fluorescence intensity”, `2'F-ANA at 2 3 4 5 7 8 10 14` is recorded as 52.8 a.u.
For `2'F-ANA at 2 4 5 6 7 8 9 10 11 12 13 15`, “mean fluorescence intensity” read 134 a.u.
Under “mean fluorescence intensity”, `2'F-ANA at 1 2 3 6 7 9 10 11 12 13 15` is recorded as 114 a.u.
Under “mean fluorescence intensity”, `2'F-ANA at 1 2 3 6 9 10 11 14` is recorded as 59.2 a.u.
`2'F-ANA at 2 3 5 12 15` — result for “mean fluorescence intensity”: 220 a.u.
`2'F-ANA at 4 6 7 8 9 10 12 14` — result for “mean fluorescence intensity”: 107 a.u.
For `2'F-ANA at 1 3 5 6 8 9 11 12 13 15`, “mean fluorescence intensity” read 80.2 a.u.

Block 5 — method: DHFR PCA, dose-response; matrix: yeast; added: (+)-ABA, dose series; reading: lower = more sensitive
Target: ABI1, truncated, D143A, DHFR fusion (Arabidopsis thaliana, UniProt P49597)
Setting: Hill fit, not affinity, not high confidence
Starting sequence: PYL1, truncated, DHFR fusion (Arabidopsis thaliana, UniProt Q8VZS8); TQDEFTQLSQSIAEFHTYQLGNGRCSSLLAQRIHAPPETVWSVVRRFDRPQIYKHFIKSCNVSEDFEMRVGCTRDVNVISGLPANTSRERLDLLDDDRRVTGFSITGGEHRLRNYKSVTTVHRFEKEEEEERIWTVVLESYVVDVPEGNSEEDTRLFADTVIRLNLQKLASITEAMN
The ABA EC50 of `L82K` is reported as 0.543 µM.
`G71V` has an ABA EC50 of 401 µM.
`I172P` has an ABA EC50 of 823 µM.
The ABA EC50 of `H16S` is reported as 585 µM.
`Q51C` gave an ABA EC50 of 55.2 µM.
With `P50D` the ABA EC50 was 109 µM.
With `K58P` the ABA EC50 was 1060 µM.
`S140D` gave an ABA EC50 of 20.2 µM.
With `R74I` the ABA EC50 was 9.1 µM.
With `N149M` the ABA EC50 was 10.4 µM.
For `S27I`, the ABA EC50 was 474 µM.
The ABA EC50 of `V137D` is reported as 0.673 µM.
`E89I` has an ABA EC50 of 1.41 µM.
`I57H` has an ABA EC50 of 176 µM.

Some of these lines once more (block 4):
`2'F-ANA at 4 6 7 8 9 10 12 14` — result for “mean fluorescence intensity”: 107 a.u.
For `2'F-ANA at 2 4 5 6 7 8 9 10 11 12 13 15`, “mean fluorescence intensity” read 134 a.u.
Under “mean fluorescence intensity”, `2'F-ANA at 1 2 3 6 9 10 11 14` is recorded as 59.2 a.u.
Under “mean fluorescence intensity”, `2'F-ANA at 1 2 3 5 6 13 14` is recorded as 47.3 a.u.
Under “mean fluorescence intensity”, `2'F-ANA at 1 2 3 6 7 9 10 11 12 13 15` is recorded as 114 a.u.
`2'F-ANA at 2 12 13 14 15`: “mean fluorescence intensity” 185 a.u.
`2'F-ANA at 1 2 5 14 15`: “mean fluorescence intensity” 43.7 a.u.
`2'F-ANA at 1 2 3 4 5 6 8 10 11 12 13 14 15` — result for “mean fluorescence intensity”: 48.6 a.u.
For `2'F-ANA at 1 3 5 6 8 9 11 12 13 15`, “mean fluorescence intensity” read 80.2 a.u.
`2'F-ANA at 1 3 6 7 8 10 11 13 14`: “mean fluorescence intensity” 65 a.u.
Under “mean fluorescence intensity”, `2'F-ANA at 1 2 3 4 6 10 11 13 15` is recorded as 54.8 a.u.
`2'F-ANA at 2 3 5 6 8 11 14 15`: “mean fluorescence intensity” 51.1 a.u.
`2'F-ANA at 2 3 5 12 15` — result for “mean fluorescence intensity”: 220 a.u.
Under “mean fluorescence intensity”, `2'F-ANA at 3 4 5 8 9 12` is recorded as 234 a.u.
